Measured values gathered from unrelated publications.
A part holds a random share of what one study measured. Substitutions count along the parent as printed.

Set 1
Target: Ras GTPase-activating protein-binding protein 1, C-terminal RGG region (G3BP1, Homo sapiens, UniProt Q13283)
Sequence of UniProt Q13283 (whole entry, looked up): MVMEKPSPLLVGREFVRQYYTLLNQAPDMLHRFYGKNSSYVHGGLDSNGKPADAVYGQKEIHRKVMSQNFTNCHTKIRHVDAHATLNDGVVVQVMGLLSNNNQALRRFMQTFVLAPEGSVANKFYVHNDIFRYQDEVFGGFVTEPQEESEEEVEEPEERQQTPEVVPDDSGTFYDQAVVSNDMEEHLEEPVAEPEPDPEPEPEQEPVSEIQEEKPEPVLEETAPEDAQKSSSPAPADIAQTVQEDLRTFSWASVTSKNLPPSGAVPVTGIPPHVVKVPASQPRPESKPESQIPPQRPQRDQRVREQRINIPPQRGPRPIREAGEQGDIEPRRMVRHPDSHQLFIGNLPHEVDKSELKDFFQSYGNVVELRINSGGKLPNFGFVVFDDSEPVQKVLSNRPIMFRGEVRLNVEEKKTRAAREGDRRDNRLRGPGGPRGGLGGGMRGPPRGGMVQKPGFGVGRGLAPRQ
Technique: RNA Bind-n-Seq
Molecule type: RNA
Medium: in vitro
Concentration: 1 µM
Notes: whole 134-nt RNA, ends assumed
Together with: 150 mM KCl
Relative to: input library
Direction: higher = stronger binding
`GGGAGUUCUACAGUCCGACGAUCCAAGUCCUGUGCUACACAUCGUAUGUACCGAAUCGGGUUUUUGGGUGGGUUUGGGAAAGUAUUAUGUUACGCCGUUCGGAUCUGCACUUCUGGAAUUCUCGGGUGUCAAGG` gave a log2 enrichment of 1.45.
`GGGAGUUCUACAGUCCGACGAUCACCAUGCAGGUGGGCAUCUUUGGGAAGUGGGGCAAGGGGGGGAUAGGGAGGGGGGUAACACUUUGGGAAUAGGUGGUCCCAGGUCGUUUCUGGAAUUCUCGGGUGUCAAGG` gave a log2 enrichment of 1.93.
`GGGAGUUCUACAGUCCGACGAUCUGGCCCUGGUGGCAUGCGGGGAGGAAGAGGUGGCCUCAUGGAUCGUGGUGGUCCCGGUGGAAUGUUUAGAGGUGGCCGUGGUGGAGACAGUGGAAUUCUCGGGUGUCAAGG` has a log2 enrichment of 2.01.
`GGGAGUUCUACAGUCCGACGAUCAAGUCCUGUGCUACACAUCGUAUGUACCGAAUCGGUUUUUUUGGUUUGGUUUUUGGAAAGUAUUAUGUUACGCCGUUCGGAUCUGCACUUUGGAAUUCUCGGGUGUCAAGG` gave a log2 enrichment of -1.89.
`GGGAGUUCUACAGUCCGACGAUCCCUGUGCUACACAUCGUAUGUACCGAAUCGGGGUUUUUUUGGGGAAAAAGGGGAAAGGGGAAAGUAUUAUGUUACGCCGUUCGGAUCUGCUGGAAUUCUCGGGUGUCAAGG` has a log2 enrichment of 0.502.
`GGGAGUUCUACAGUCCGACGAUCCACAGACAACACGCACCCACACAGACACAGAGGGAAGGGGUUGGGAUGGGGACAGGGUGCACAGCAGGGCGGGGUAGGAAACCAGCCCCUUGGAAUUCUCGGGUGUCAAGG` has a log2 enrichment of -0.102.
`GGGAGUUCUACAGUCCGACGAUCUGGCCCUGGUGGCAUGCGGGGAGGAAGAGGUGGCCUCAUGAAUCGUGGUGGUCCCGGUGGAAUGUUCAGAGGUGGCCGUGGUGGAGACAGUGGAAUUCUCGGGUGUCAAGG` has a log2 enrichment of 1.73.
The log2 enrichment of `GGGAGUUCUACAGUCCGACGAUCCUGUGCUACACAUCGUAUGUACCGAAUCGGUUUUUUUGGGGUUUUUUUGGGGUUUUUUUGGAAAGUAUUAUGUUACGCCGUUCGGAUCUGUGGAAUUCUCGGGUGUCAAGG` is reported as -1.14.
For `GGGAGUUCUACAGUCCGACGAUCUGGGAGGUGGAUUUUGUUUAUUUUUUUAGCUCAUUUCCAGGGGUGGUAAUUUUUUUUUAAUAUGUGUCAUGAAUAAAGUUGUUUUUGAAAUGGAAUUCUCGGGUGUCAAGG`, the log2 enrichment was 2.67.
`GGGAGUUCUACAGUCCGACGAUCCAAGUCCUGUGCUACACAUCGUAUGUACCGAAUCGGGUUUUUUUGGGUGGGUGGGAAAGUAUUAUGUUACGCCGUUCGGAUCUGCACUUCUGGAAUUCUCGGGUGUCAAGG` gave a log2 enrichment of 0.89.

Set 2
Target: CCNA2, cyclin fold, Cln2 fusion (human)
Technique: yeast growth competition, sequencing
Medium: yeast
Notes: weak parent motif
Relative to: not given
Direction: higher = stronger binding
Starting sequence: MASTL docking peptide (human); PMIAKNLMCELDE
Under “normalised enrichment score”, `PMIAKILMCELDE [N6I]` is recorded as 0.41.
Under “normalised enrichment score”, `PYIAKNLMCELDE [M2Y]` is recorded as 0.378.
`PMIAKNLLCELDE [M8L]` — result for “normalised enrichment score”: 0.168.
`PMIAKCLMCELDE [N6C]` — result for “normalised enrichment score”: -0.351.
For `PMIAKNLMCNLDE [E10N]`, “normalised enrichment score” read 0.0738.
For `PCIAKNLMCELDE [M2C]`, “normalised enrichment score” read -0.0566.
For `PMIAKNYMCELDE [L7Y]`, “normalised enrichment score” read -0.0748.
`PPIAKNLMCELDE [M2P]`: “normalised enrichment score” 0.0402.
`PMIKKNLMCELDE [A4K]` — result for “normalised enrichment score”: 0.483.

Set 3
Target: Histone acetyltransferase KAT6A, both winged helices, GST fusion (KAT6A, Homo sapiens, UniProt Q92794, residues 1-181)
Technique: protein binding microarray
Molecule type: double-stranded DNA, one strand shown
Medium: in vitro
Concentration: not given
Notes: 8-mer, flanks averaged, mean of 2 arrays, mostly near background
Relative to: not given
Direction: higher = stronger binding
Residues (chain): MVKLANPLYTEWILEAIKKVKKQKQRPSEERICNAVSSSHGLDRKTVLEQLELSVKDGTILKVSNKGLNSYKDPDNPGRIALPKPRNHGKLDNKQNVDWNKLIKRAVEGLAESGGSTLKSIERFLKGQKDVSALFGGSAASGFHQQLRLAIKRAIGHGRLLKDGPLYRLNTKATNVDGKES
`ACTTGATG` has an E-score of -0.00588.
For `ACAATGCC`, the E-score was 0.0487.
`ACTCCGCA` has an E-score of -0.0257.
For `CACATAAC`, the E-score was -0.0547.
For `AGCTCCGC`, the E-score was 0.127.
With `ATATTTTC` the E-score was -0.000355.
`GGGTCACC` gave an E-score of 0.0447.
With `GCGGAGAA` the E-score was 0.177.
With `TAAAGTAA` the E-score was -0.00592.
`CACCCACA` gave an E-score of -0.118.

Single results of other studies
For `PhoQ, residues 284 288 289 292 302 303 AMDMFI`, the fold induction was 0.832 (PhoP, residues 12 14 15 18 19 GHCSL (Escherichia coli, UniProt P23836); Sort-seq, refers to: YFP reporter; E. coli; PhoQ-PhoP variant library, together with: 10 µM Mg2+; relative to: high Mg2+ state, higher = stronger signaling).

Repeated from above (set 2):
For `PMIAKNYMCELDE [L7Y]`, “normalised enrichment score” read -0.0748.
`PPIAKNLMCELDE [M2P]`: “normalised enrichment score” 0.0402.
